Published values of several laboratories.
± marks the error that the study gave.

C=C(NC(=O)c1csc(-c2nc3c(cc2O)-c2nc(cs2)C(=O)NC(C(C)O)C(=O)NC(=C(C)OC)c2nc(cs2)C(=O)NC2c4nc(cs4)C(=O)NC(COC(=O)c4c5c6c(cccc6n4O)COC(=O)C(OC4CC(C)(O)C(N(C)C)C(C)O4)C2OC5)c2nc-3cs2)n1)C(N)=O (stereo not shown)  MRT(0-last) (cynomolgus monkey, male, plasma; intravenous infusion, 9 mg/kg single dose): 1.87 h
CNC(=O)C1CCCN(C(=O)C2CC3CCC2N3C(=O)[C@@H]2C[C@@H](O)CN2C(=O)NCc2cccc(Cl)c2F)C1 (mixture of isomers)  6β-hydroxytestosterone formed (human CYP3A4; time-dependent inhibition; 0.0686 µM, preincubation with NADPH, together with: testosterone): 180 ng/mL
CCCC[C@H](NC(=O)CCCCCCCNC(=O)CN1CCN(CC(=O)O)CCN(CC(=O)O)CC1)C(=O)N[C@H]1CC(=O)NCCCC[C@@H](C(N)=O)NC(=O)[C@H](Cc2c[nH]c3ccccc23)NC(=O)[C@H](CCCNC(=N)N)NC(=O)[C@@H](Cc2ccccc2)NC(=O)[C@H](Cc2c[nH]cn2)NC1=O [fluorine-18 labelled]  tissue uptake (C57 mice B16-F10 melanoma, stomach; intravenous, 0.37 MBq, 0.5 h): 1.52 ± 0.32 %ID/g
COc1cccc(OC)c1-c1cc(C(=O)NC2(C(=O)O)C3CC4CC(C3)CC2C4)nn1-c1ccc(C(=O)NCCNC(=O)[C@H](CCCCNC(=O)[C@H](CC(C)C)NC(=O)C2OC2C(=O)O)NC(=O)CN2CCN(CC(=O)[O-])CCN(CC(=O)[O-])CCN(CC(=O)[O-])CC2)cc1C(C)C.[177Lu+3] (mixture of isomers)  tissue uptake (mouse, HT-29 xenograft, liver; 24 h post injection): 1.09 %ID/g
Cc1cc(C)n(CCN(CCN)CCCCCCNC(=O)[C@@H](N)Cc2c[nH]cn2)n1.[99Tc+].[C-]#[O+].[C-]#[O+].[C-]#[O+]  tissue uptake (BALB/c nude mice, MCF7 xenograft, stomach; intravenous, 15 min): 0.86 ± 0.02 %IA/g
CC(C)Cc1ccc(C(C)C(=O)N[C@@H](CCCCNC(=O)CCOCCOCCOCCOCCOCCOCCNC(=O)CN2CCN(CC(=O)[O-])CCN(CC(=O)[O-])CCN(CC(=O)[O-])CC2)C(=O)Nc2cccc3c(C(=O)NCC(=O)N4CC(F)(F)C[C@H]4C#N)ccnc23)cc1.[177Lu+3] (stereo partly shown)  tissue uptake (mouse, U-87 MG tumour xenograft, brain; 1 h): 0.43 ± 0.15 %ID/g
Cc1ncsc1-c1ccc(C(C)NC(=O)C2CC(O)CN2C(=O)C(NC(=O)CCCCCCCCCCN2CCCC(Nc3ncc(Cl)c(Nc4ccccc4S(=O)(=O)C(C)C)n3)C2)C(C)(C)C)cc1 (stereo not shown)  log2 fold change (22Rv1; RNA-seq, item: SATB2 mRNA; concentration not given; baseline: DMSO): -1.55
N#C[C@@H]1CC(F)(F)CN1C(=O)CNC(=O)c1ccnc2c(NC(=O)[C@@H](N)CCCCNC(=O)CCOCCOCCOCCOCCOCCOCCNC(=O)CN3CCN(CC(=O)[O-])CCN(CC(=O)[O-])CCN(CC(=O)[O-])CC3)cccc12.[177Lu+3]  tissue uptake (mouse, U-87 MG tumour xenograft, spleen; 48 h): 0.05 ± 0.01 %ID/g
C=CC(=O)Nc1cccc(Cn2ncc3cnc(Nc4cnn(CCOC)c4)nc32)c1  percent of control (MYLK2 human; binding, KINOMEscan; 100 nM; lower = stronger binding): 67%
O=C(Nc1cnccc1-c1ccc([18F])nc1)c1ccnc(NC(=O)C2CC2)c1  SUV (FVB/NJ mice (both sexes), bladder; intravenous, dose not given, 120 min): 0.563
O=C(NCC1OC2CCC=CCCC2O1)c1ccc([18F])nc1 (stereo not shown)  tissue uptake (healthy female BALB/c nude mice, lungs; intravenous, 7.4 MBq per mouse, 120 min): 0.5 ± 0.03 %ID/g
COc1cccc(OC)c1-c1cc(C(=O)NC2(C(=O)O)C3CC4CC(C3)CC2C4)nn1-c1ccc(C(=O)N(C)CCOCCN(C)C(=O)[C@H](CCCCNC(=O)[C@H](CC(C)C)NC(=O)C2OC2C(=O)O)NC(=O)CN2CCN(CC(=O)[O-])CCN(CC(=O)[O-])CCN(CC(=O)[O-])CC2)cc1C(C)C.[177Lu+3] (mixture of isomers)  tissue uptake (mouse, HT-29 xenograft, heart; 72 h post injection): 0.14 %ID/g
O=C(O)CCCOc1ccc([18F])cc1-c1cc(-c2ccccc2C(F)(F)F)n(-c2ccccc2)n1  tissue uptake (mouse, small intestine; intravenous, dose not given, 180 min): 5.53 ± 0.62 %ID/g
[123I]c1ccc2nc(-c3ccc(-n4ccnn4)nc3)cn2c1  tissue uptake (male Wistar rat, small intestine; intravenous, 4 MBq, 30 min): 9.77 ± 3.8 %ID/g
N#C[C@@H]1CC(F)(F)CN1C(=O)CNC(=O)c1ccnc2c(NC(=O)[C@H](CCCCNC(=O)CCOCCOCCOCCOCCOCCOCCNC(=O)CN3CCN(CC(=O)[O-])CCN(CC(=O)[O-])CCN(CC(=O)[O-])CC3)NC(=O)CCCc3ccc(I)cc3)cccc12.[177Lu+3]  tissue uptake (mouse, U-87 MG tumour xenograft, salivary gland; 24 h): 3.38 ± 1.02 %ID/g
COc1cccc(OC)c1-c1cc(C(=O)NC2(C(=O)O)C3CC4CC(C3)CC2C4)nn1-c1ccc(C(=O)N(C)CCOCCOCCN(C)C(=O)[C@H](CCCCNC(=O)[C@H](CC(C)C)NC(=O)C2OC2C(=O)O)NC(=O)CN2CCN(CC(=O)[O-])CCN(CC(=O)[O-])CCN(CC(=O)[O-])CC2)cc1C(C)C.[177Lu+3] (mixture of isomers)  tissue uptake (mouse, HT-29 xenograft, heart; 24 h post injection): 0.29 %ID/g
[11CH3]N1CCC(NC(=O)c2cc(-c3c(O)cc(O)cc3Oc3ccc([N+](=O)[O-])cc3)on2)CC1  tissue uptake (Wistar rat, female, healthy, kidneys; intravenous, 10 min): 9.6 ± 1.4 %ID
COc1ccc2c(c1)C(C)(C)C(/C=C/C1=C(Oc3ccc(C(=O)NCCCCOc4cc(CN(Cc5ccccn5)Cc5ccccn5)cc(CN(Cc5ccccn5)Cc5ccccn5)c4)cc3)C(=C/C=C3/N(CCCCS(=O)(=O)[O-])c4ccc(OC)cc4C3(C)C)CCC1)=[N+]2CCCCS(=O)(=O)[O-].O=[N+]([O-])[O-].O=[N+]([O-])[O-].[99Tc+].[C-]#[O+].[C-]#[O+].[C-]#[O+].[Zn+2]  tissue uptake (BALB/c mice, S. aureus myositis, heart; 12 h post-injection): 1.9 %ID/g
COc1ccc(Nc2nc(Nc3ccc(OCCOCC[18F])cc3)ncc2Br)cc1  tissue uptake (ICR mice, S180 tumour-bearing, bone; intravenous, 370 kBq, 5 min): 2.52 ± 0.2 %ID/g
COc1cccc(OC)c1-c1cc(C(=O)NC2(C(=O)O)C3CC4CC(C3)CC2C4)nn1-c1ccc(C(=O)N(C)CCCN(C)C(=O)[C@H](CCCCNC(=O)[C@H](CC(C)C)NC(=O)C2OC2C(=O)O)NC(=O)CN2CCN(CC(=O)[O-])CCN(CC(=O)[O-])CCN(CC(=O)[O-])CC2)cc1C(C)C.[177Lu+3] (mixture of isomers)  tissue uptake (mouse, HT-29 xenograft, liver; 168 h post injection): 0.76 %ID/g
COC1CN([C@H]2CC[C@H]([C@@]3(C)Oc4c(Cl)cc(C(=O)NCc5c(SC)cc(C)[nH]c5=O)c(C)c4O3)CC2)C1  log2 fold change (RNA-seq, item: NBEA mouse homolog; mouse, HT-1376 xenograft, whole blood; dose not given; baseline: vehicle): 1.18
O=C1C2CC3CC1CC(C(=O)N1CCN(c4ccc([N+](=O)[O-])c5ncccc45)CC1)(C3)C2  mean revertant colonies (Salmonella typhimurium; Ames test; TA100; 0.78 µg/well, without S9): 23 colonies/well

A few entries again:
COc1cccc(OC)c1-c1cc(C(=O)NC2(C(=O)O)C3CC4CC(C3)CC2C4)nn1-c1ccc(C(=O)N(C)CCCN(C)C(=O)[C@H](CCCCNC(=O)[C@H](CC(C)C)NC(=O)C2OC2C(=O)O)NC(=O)CN2CCN(CC(=O)[O-])CCN(CC(=O)[O-])CCN(CC(=O)[O-])CC2)cc1C(C)C.[177Lu+3] (mixture of isomers)  tissue uptake (mouse, HT-29 xenograft, liver; 168 h post injection): 0.76 %ID/g
O=C(O)CCCOc1ccc([18F])cc1-c1cc(-c2ccccc2C(F)(F)F)n(-c2ccccc2)n1  tissue uptake (mouse, small intestine; intravenous, dose not given, 180 min): 5.53 ± 0.62 %ID/g
